Experimental data of several laboratories.
Parts stem from different laboratories: compare values within a part only. Values joined by “and” are separate records of one study, mostly repeats; a detail may differ.
Sequence of UniProt P50750 (whole entry, looked up): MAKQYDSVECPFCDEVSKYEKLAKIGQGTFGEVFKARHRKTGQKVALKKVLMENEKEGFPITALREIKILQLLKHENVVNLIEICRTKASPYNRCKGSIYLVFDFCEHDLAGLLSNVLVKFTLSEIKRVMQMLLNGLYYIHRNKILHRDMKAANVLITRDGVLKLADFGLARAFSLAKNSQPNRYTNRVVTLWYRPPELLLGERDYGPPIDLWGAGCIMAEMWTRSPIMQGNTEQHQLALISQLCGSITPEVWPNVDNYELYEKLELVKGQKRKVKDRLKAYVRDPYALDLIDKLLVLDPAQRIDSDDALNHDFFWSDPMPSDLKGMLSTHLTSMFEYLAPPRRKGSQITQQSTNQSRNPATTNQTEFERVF
Sequence of UniProt Q9Y6E0 (whole entry, looked up): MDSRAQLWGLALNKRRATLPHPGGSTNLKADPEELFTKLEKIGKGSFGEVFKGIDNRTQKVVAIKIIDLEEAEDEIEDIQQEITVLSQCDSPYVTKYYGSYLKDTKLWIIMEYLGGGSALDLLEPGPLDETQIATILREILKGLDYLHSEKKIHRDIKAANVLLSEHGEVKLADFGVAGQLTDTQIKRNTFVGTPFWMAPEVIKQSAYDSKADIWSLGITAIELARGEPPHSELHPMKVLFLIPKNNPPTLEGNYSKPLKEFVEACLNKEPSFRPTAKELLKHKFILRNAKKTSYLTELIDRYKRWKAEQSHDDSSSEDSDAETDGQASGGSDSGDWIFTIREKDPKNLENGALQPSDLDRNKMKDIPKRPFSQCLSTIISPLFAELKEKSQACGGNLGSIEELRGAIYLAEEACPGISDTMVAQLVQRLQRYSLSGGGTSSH
Sequence of UniProt P68400 (whole entry, looked up): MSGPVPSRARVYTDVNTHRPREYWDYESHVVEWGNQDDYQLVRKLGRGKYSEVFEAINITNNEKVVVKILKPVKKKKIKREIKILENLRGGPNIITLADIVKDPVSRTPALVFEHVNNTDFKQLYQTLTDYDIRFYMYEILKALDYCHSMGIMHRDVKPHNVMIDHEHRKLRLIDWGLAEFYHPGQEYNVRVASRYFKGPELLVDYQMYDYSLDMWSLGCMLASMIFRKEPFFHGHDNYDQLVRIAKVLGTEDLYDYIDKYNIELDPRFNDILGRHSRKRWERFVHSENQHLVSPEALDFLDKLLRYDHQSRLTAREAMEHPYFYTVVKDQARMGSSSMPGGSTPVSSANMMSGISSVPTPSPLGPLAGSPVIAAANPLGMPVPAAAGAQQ
Sequence of UniProt P41743 (whole entry, looked up): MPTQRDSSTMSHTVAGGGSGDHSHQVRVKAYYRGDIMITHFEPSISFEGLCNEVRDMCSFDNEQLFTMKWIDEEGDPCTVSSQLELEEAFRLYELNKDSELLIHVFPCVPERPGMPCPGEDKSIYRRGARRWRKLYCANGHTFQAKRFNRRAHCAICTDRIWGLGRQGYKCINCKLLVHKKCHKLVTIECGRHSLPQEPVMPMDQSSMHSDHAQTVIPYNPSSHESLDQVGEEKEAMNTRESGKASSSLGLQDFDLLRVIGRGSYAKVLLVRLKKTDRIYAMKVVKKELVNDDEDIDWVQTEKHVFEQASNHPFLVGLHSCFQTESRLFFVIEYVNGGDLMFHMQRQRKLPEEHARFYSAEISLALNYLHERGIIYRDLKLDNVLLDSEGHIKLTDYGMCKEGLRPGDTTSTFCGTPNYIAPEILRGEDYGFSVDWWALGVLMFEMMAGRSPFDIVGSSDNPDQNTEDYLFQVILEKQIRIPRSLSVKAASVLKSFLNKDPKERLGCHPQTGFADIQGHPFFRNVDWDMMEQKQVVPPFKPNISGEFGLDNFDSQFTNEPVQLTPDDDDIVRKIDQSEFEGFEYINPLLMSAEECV
Sequence of UniProt O75582 (whole entry, looked up): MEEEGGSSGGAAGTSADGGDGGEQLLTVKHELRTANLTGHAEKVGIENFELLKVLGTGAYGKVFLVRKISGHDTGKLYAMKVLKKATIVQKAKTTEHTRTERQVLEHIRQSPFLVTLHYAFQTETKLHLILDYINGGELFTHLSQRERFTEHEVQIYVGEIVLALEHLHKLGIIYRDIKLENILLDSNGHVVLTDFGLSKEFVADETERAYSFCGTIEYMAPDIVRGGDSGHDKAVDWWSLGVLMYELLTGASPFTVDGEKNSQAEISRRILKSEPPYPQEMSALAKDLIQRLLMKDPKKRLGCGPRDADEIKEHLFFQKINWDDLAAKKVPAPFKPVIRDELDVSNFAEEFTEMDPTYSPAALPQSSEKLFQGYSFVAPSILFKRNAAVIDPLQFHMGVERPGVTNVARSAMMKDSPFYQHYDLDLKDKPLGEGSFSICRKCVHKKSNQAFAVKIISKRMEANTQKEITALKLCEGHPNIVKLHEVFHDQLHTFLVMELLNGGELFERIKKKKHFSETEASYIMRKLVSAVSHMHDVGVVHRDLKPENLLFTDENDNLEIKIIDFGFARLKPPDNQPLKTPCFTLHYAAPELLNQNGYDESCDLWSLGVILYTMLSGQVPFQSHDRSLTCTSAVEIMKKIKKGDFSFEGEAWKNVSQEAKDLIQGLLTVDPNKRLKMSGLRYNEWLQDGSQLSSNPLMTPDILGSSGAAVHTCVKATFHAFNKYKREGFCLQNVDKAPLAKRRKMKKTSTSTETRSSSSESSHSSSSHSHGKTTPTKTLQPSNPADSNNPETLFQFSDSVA
Sequence of UniProt P78368 (whole entry, looked up): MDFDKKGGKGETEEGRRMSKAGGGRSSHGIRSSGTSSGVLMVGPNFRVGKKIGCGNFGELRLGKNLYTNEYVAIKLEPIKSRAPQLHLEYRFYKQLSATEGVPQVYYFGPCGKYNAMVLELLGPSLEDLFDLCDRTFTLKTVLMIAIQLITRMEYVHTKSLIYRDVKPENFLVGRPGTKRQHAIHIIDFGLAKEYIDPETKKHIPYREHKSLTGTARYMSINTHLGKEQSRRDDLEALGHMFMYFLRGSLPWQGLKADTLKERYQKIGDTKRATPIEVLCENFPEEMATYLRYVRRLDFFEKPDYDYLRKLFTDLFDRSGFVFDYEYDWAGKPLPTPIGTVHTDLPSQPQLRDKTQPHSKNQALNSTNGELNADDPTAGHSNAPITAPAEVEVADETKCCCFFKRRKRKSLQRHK
Sequence of UniProt Q9Y243 (whole entry, looked up): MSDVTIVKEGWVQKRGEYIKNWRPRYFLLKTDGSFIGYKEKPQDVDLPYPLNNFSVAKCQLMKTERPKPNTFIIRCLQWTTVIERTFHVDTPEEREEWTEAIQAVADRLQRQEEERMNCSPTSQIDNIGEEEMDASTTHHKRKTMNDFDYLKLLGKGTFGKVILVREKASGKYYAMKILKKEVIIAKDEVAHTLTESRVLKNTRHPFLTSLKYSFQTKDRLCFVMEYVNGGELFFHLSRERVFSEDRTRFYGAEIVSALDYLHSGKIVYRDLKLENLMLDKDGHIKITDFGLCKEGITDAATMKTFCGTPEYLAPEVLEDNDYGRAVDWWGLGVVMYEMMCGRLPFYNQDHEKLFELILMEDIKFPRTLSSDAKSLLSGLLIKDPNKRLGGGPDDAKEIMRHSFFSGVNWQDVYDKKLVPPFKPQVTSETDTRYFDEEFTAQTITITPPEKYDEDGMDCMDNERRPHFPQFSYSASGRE
Sequence of UniProt O15197 (whole entry, looked up): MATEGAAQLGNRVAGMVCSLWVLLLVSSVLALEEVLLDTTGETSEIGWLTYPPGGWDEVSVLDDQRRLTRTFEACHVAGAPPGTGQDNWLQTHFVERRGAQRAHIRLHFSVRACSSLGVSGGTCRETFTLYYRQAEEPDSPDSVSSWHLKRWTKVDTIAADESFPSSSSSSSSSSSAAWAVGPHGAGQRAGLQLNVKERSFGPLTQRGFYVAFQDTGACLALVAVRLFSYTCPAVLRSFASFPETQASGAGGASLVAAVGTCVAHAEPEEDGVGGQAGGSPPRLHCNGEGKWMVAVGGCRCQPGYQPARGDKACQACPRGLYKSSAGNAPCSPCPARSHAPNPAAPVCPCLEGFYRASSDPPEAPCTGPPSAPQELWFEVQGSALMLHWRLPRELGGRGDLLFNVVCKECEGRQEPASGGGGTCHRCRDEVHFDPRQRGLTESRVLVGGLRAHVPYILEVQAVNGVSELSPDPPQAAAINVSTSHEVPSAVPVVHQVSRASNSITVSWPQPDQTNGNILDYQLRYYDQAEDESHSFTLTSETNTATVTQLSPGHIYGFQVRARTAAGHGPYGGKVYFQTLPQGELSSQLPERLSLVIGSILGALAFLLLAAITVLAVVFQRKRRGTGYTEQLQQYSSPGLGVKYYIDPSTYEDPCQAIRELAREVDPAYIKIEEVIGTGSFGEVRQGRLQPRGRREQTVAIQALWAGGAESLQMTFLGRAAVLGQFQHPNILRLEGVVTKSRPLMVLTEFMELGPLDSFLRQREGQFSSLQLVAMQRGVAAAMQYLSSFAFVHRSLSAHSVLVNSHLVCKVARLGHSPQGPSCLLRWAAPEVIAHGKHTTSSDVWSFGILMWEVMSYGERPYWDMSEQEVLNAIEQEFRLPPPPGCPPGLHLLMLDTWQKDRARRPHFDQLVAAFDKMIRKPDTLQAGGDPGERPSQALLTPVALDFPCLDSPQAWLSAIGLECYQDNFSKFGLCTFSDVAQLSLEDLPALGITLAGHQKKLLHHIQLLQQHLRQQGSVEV
Sequence of UniProt P48729 (whole entry, looked up): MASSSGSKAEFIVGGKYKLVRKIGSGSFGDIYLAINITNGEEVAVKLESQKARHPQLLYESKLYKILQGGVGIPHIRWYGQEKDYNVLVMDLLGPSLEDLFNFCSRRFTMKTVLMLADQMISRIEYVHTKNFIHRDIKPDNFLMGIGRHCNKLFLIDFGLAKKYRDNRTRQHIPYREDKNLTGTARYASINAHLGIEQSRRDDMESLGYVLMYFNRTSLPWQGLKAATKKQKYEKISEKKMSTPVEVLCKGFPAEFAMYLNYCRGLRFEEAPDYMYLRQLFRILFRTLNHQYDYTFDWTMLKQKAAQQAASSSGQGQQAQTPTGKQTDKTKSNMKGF

Sample 1 — observed: enzyme activity; action: inhibitor; concentration: 0.5 µM; reference: control; measurement: remaining activity
SMILES: COc1cc2ncnc(N3CCN(C(=O)Nc4ccc(Oc5ccccc5)cc4)CC3)c2cc1OC
Cyclin-dependent kinase 9, with cyclin T1 (CDK9, Homo sapiens, UniProt P50750): 97.3%
STK38 (Homo sapiens, UniProt Q15208): 96.9%
MAPK13 (Homo sapiens, UniProt O15264): 104%
MAPK12 (Homo sapiens, UniProt P53778): 94.7%
MKNK2 (Homo sapiens, UniProt Q9HBH9): 94.2%
CSNK2A1 (Homo sapiens, UniProt P68400): 96.2%
PRKCD (Homo sapiens, UniProt Q05655): 84.3%
CSNK1A1 (Homo sapiens, UniProt P48729): 108%
PRKCI (Homo sapiens, UniProt P41743): 105%
AKT3 (Homo sapiens, UniProt Q9Y243): 97.5%
CHEK1 (Homo sapiens, UniProt O14757): 99.4%
PLK2 (Homo sapiens, UniProt Q9NYY3): 105%
IRAK4 (Homo sapiens, UniProt Q9NWZ3): 83.5%

Sample 2 — observed: cell-free assay; technique: competition with immobilised ligand; concentration: 1 µM; measurement: remaining binding
SMILES: COc1cc(-c2cn(C3CCc4c(F)cccc4N(CC(F)(F)F)C3=O)nn2)ccc1-n1cnc(C)c1 (centres unmarked)
STK24 (Homo sapiens, UniProt Q9Y6E0): 100%
PTK2B (Homo sapiens, UniProt Q14289): 100%
MAP3K7 (Homo sapiens, UniProt O43318): 100%
PLK3 (Homo sapiens, UniProt Q9H4B4): 100%
PAK5 (Homo sapiens, UniProt Q9P286): 93%
Tyrosine-protein kinase ABL1, non-phosphorylated (ABL1, Homo sapiens, UniProt P00519, T315I): 85%
MAP4K1 (Homo sapiens, UniProt Q92918): 100%
CDK9 (Homo sapiens, UniProt P50750): 97%
FLT3 (Homo sapiens, UniProt P36888, R834Q): 100%
PIK3CA (Homo sapiens, UniProt P42336, H1047L): 96%
CSNK1G2 (Homo sapiens, UniProt P78368): 100%
EPHB6 (Homo sapiens, UniProt O15197): 100%
PIM1 (Homo sapiens, UniProt P11309): 96%
Ribosomal protein S6 kinase alpha-5, C-terminal kinase domain (RPS6KA5, Homo sapiens, UniProt O75582): 73%
CSNK1G1 (Homo sapiens, UniProt Q9HCP0): 86%
PRKACA (Homo sapiens, UniProt P17612): 100%
BRAF (Homo sapiens, UniProt P15056): 100%
Tyrosine-protein kinase JAK1, JH2 (JAK1, Homo sapiens, UniProt P23458): 100%

Sample 3 — cell line: mouse MPNST tumor cells; technique: high-content nuclear imaging; measured: cell number; concentration: 10 µM; time: 12 h; notes: mean of 2 replicates; reference: plate mean; direction: higher = more cells; measurement: nuclei count
N#Cc1ccc(-c2ccc(S(=O)(=O)Nc3cccc(N)n3)cc2)cc1: 0.315 z-score
CN(C)CCOC(C)(c1ccccc1)c1ccccn1 (centres unmarked): 1.75 z-score
O=S(=O)(NCCCCCCc1ccccc1)c1cccc2c(Cl)cccc12: -0.44 z-score
O=c1c(-c2ccc(O)cc2)coc2cc(O)ccc12: 1.82 z-score
CCN(CC)CCOC(=O)C1(C2CCCCC2)CCCCC1: 3.44 z-score
CCCS(=O)(=O)c1nc(NC2CC2)cc(-c2ccc3c(ccn3C3CC(C)(C)NC(C)(C)C3)c2)n1: -6.28 z-score
O=C(Cn1ccnc1[N+](=O)[O-])NCCO: 1.59 z-score
CCCCOc1c(C(=O)c2c(F)cc(C)cc2F)c[nH]c2nncc1-2: -1.26 z-score
Cc1nc2sccn2c(=O)c1CCN1CCC(=C(c2ccc(F)cc2)c2ccc(F)cc2)CC1: 1.82 z-score
O=C(Nc1ccccc1C(=O)Nc1ccc(CCO)cc1)c1ccc([N+](=O)[O-])cc1: 2.62 z-score

Sample 4 — organism: Leishmania donovani; technique: cidal or static mode; strain: DD8; sample: promastigotes; concentration: concentration not given; measurement: promastigote count
Compound: c1ccc(Oc2ccc(Nc3c4c(nc5ccccc35)CCC4)cc2)cc1
72 h: 9.76e+06 and 9.58e+06
24 h: 1.24e+06
48 h: 4.33e+06 and 4.37e+06

Excerpt of the above (sample 2):
Tyrosine-protein kinase ABL1, non-phosphorylated (ABL1, Homo sapiens, UniProt P00519, T315I): 85%
PLK3 (Homo sapiens, UniProt Q9H4B4): 100%
PTK2B (Homo sapiens, UniProt Q14289): 100%
